Measured values gathered from unrelated publications.
Protocols differ between the studies behind these lines. “And” joins repeats or separate records; there may be more than shown. Numbers after ± are the reported error.
rep R3428I 3C-like proteinase: Replicase polyprotein 1ab, 3C-like proteinase (rep, Severe acute respiratory syndrome-related coronavirus, UniProt P0C6X7, R3428I)
Botulinum neurotoxin type A light chain: Botulinum neurotoxin type A, light chain (Clostridium botulinum, UniProt P0DPI0)
Chrna3/Chrnb2/Chrna6 with beta3 subunit: Chrna3/Chrnb2/Chrna6, with beta3 subunit (Rattus norvegicus, UniProt P04757+P12390+P43143)
Replicase polyprotein 1a R3428I 3C-like proteinase: Replicase polyprotein 1a, 3C-like proteinase (Severe acute respiratory syndrome-related coronavirus, UniProt P0C6U8, R3428I)
Ricin A chain: Ricin, A chain (Ricinus communis, UniProt P02879)
Shiga-like toxin 2 subunit A A1 fragment: Shiga-like toxin 2 subunit A, A1 fragment (UniProt P09385)

By UniProt entry, the sequences of proteins in these tests, tags left out. Residues count along the entry.
UniProt P04757, whole entry, looked up: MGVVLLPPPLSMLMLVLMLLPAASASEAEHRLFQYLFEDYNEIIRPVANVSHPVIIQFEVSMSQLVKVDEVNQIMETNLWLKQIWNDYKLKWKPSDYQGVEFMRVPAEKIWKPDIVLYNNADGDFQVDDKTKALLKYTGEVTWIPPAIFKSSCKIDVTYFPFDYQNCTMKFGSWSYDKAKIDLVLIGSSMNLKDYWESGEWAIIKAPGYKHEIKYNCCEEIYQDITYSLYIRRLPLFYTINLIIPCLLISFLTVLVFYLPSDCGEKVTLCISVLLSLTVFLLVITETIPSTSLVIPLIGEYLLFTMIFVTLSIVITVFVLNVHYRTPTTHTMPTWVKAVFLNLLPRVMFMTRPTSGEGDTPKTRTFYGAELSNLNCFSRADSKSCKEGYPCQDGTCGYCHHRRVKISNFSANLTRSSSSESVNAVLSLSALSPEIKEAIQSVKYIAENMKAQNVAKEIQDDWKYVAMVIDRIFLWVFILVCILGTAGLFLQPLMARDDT
UniProt P12390, whole entry, looked up: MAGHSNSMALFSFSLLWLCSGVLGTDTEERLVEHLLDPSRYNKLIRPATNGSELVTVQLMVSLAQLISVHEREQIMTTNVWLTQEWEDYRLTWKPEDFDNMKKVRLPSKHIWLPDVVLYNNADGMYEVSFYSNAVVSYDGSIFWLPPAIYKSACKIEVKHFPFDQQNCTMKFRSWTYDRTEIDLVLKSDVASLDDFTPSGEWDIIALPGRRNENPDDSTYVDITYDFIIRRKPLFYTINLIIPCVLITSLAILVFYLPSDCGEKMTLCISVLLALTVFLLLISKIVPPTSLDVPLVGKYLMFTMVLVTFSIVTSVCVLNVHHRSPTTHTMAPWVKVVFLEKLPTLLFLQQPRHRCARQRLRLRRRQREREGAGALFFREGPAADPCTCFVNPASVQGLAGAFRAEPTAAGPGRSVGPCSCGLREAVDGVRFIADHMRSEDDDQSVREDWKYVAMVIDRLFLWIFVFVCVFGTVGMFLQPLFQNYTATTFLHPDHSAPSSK
UniProt P43143, whole entry M241L/F253L/V303I/V320I/I327V/A333T/K339T, looked up: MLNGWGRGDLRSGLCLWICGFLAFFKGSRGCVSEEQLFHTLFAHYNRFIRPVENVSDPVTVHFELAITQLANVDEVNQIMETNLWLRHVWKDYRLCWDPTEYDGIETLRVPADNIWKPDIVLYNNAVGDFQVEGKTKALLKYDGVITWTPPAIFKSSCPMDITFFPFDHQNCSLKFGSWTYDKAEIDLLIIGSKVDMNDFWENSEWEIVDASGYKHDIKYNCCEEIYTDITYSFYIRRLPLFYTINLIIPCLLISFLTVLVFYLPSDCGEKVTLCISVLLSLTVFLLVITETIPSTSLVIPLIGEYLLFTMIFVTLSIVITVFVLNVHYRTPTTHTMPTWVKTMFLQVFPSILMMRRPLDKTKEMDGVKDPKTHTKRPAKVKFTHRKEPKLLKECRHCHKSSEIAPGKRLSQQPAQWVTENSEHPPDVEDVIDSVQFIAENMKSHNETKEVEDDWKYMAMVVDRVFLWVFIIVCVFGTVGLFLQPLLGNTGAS
UniProt Q9GZZ6, 25-450 limits assumed: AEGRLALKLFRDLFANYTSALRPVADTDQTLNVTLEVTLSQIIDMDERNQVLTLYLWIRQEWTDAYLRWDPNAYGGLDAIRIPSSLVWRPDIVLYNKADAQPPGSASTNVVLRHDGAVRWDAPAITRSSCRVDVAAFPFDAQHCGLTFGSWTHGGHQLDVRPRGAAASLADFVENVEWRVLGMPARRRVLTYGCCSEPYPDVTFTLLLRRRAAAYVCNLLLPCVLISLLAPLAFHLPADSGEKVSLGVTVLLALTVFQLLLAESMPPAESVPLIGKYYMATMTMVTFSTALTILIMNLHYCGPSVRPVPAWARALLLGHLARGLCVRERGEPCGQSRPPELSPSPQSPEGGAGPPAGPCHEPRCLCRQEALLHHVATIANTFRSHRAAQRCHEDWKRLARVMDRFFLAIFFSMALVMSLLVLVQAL
UniProt Q9UGM1, 26-479 limits assumed: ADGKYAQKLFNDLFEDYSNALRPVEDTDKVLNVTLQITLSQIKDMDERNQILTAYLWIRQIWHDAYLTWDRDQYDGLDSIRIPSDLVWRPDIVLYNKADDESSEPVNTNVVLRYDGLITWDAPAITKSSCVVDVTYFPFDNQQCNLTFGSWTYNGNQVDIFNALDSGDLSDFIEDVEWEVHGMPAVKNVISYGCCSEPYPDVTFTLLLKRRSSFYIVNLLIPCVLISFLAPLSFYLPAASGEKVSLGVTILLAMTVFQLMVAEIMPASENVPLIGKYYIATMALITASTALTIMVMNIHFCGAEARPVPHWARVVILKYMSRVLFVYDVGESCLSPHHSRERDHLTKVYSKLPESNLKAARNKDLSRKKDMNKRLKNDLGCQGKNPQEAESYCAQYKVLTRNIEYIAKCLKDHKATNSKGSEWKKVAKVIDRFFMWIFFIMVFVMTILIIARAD
UniProt Q05941, 23-502 limits assumed: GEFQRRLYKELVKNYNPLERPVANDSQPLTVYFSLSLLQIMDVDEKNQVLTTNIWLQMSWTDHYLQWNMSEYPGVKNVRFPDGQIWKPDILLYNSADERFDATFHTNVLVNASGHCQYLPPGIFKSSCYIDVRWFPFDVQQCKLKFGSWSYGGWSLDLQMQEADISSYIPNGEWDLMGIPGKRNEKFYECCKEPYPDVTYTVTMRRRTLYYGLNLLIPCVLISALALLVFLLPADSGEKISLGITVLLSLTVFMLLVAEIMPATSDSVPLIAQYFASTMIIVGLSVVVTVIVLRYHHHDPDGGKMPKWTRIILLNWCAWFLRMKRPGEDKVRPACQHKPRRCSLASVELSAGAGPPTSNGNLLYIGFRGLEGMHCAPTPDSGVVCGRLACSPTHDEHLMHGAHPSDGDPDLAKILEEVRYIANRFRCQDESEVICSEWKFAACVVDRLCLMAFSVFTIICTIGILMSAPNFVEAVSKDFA
UniProt Q869C3, whole entry, looked up: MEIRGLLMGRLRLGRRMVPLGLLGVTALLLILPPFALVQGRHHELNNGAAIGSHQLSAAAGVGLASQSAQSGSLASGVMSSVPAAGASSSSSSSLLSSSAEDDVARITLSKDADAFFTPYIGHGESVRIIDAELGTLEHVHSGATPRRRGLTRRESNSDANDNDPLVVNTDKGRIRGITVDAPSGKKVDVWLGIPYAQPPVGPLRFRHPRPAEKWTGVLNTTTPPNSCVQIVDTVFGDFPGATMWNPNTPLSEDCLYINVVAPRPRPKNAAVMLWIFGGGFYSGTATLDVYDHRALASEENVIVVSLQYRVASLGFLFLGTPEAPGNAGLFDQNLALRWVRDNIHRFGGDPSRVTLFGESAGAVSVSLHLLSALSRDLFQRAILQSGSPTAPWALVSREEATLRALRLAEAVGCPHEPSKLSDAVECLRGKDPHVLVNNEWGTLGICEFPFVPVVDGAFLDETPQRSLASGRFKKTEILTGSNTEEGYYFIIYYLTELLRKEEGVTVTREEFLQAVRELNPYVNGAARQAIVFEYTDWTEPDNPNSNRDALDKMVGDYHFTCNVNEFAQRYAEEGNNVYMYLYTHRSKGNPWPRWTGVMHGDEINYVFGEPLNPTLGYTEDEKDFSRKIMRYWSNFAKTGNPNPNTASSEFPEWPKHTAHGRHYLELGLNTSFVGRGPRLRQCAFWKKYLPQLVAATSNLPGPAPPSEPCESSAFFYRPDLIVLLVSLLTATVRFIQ

SMILES | target | assay | system | conditions | IC50
O=C(/C=C/c1ccccc1)N[C@@H](COC(=O)c1c(Cl)cc(Cl)cc1Cl)C(=O)NC1CCCCC1 | rep R3428I 3C-like proteinase | enzyme activity, inhibitor, HPLC substrate depletion | – | pH 4.0 | 550 µM
O=C(O)c1cc(-c2ccc(-c3c(-c4ccc5c(c4)OCO5)noc3-c3ccsc3)cc2)nc2ccccc12 | Botulinum neurotoxin type A light chain | inhibitor, FRET, YFP-SNAP25-CFP substrate | – | no reducing agent | 130 µM
O=C(O)C1CN(Cc2ccc(CO)cc2)Cc2ccccc21 (centres unmarked) | Replicase polyprotein 1ab, nsp13 helicase (rep, Severe acute respiratory syndrome coronavirus 2, UniProt P0DTD1) | inhibitor | – | – | 4.5 to 5.7 µM
C[C@@H]1NC(=O)[C@H](CCCNC(=N)N)NC(=O)[C@H](CCCNC(=N)N)NC(=O)[C@H](CCCNC(=N)N)NC(=O)[C@H](CO)NC(=O)[C@@H]2CSSC[C@H](NC(=O)CN)C(=O)N[C@@H](CSSC[C@@H](C(N)=O)NC(=O)[C@H](CO)NC(=O)[C@H](CCCNC(=N)N)NC1=O)C(=O)N[C@@H](CO)C(=O)N[C@@H](Cc1c[nH]cn1)C(=O)N1CCC[C@H]1C(=O)N[C@@H](C)C(=O)N2 | Neuronal acetylcholine receptor; alpha9/alpha10 (Homo sapiens, UniProt Q9GZZ6+Q9UGM1) | ion current, antagonist, two-electrode voltage clamp | Xenopus oocytes | holding -70 mV, together with: 100 µM acetylcholine | 0.0981 µM
O=C1NN(c2ccccc2)C(=O)/C1=C\c1ccc(-c2cc([N+](=O)[O-])ccc2O)o1 | Botulinum neurotoxin type A light chain | inhibitor, FRET, SNAPtide substrate | – | no reducing agent | 8 ± 3 µM
O=C1/C(=C2\Nc3ccccc3C2=O)Nc2ccccc21 | Replicase polyprotein 1ab, 3C-like proteinase (rep, Severe acute respiratory syndrome-related coronavirus, UniProt P0C6X7) | 3CLpro cleavage, inhibitor, luciferase reporter | Vero | – | 752 µM and 724 µM
COc1ccc(OCC(=O)N[C@H](C(=O)N[C@@H](CC(C)C)C(=O)N[C@@H](C[C@@H]2CCNC2=O)C(=O)c2nc3ccccc3s2)C(C)C)cc1 | rep R3428I 3C-like proteinase | enzyme activity, inhibitor, HPLC | – | 60 min, 37 °C, together with: substrate 111 µM | 0.92 µM
CC[C@H](C)[C@@H]1NC(=O)[C@H](CCC(=O)O)NC(=O)[C@@H]2CCCN2C(=O)[C@H](Cc2c[nH]cn2)NC(=O)[C@H](CCCCC(=O)O)NC(=O)[C@H](CC(C)C)NC(=O)[C@H](Cc2c[nH]cn2)NC(=O)[C@@H]2CSSC[C@H](NC(=O)CN)C(=O)N[C@@H](CSSC[C@@H](C(N)=O)NC1=O)C(=O)N[C@@H](CO)C(=O)N[C@@H](Cc1c[nH]cn1)C(=O)N1CCC[C@H]1C(=O)N[C@@H](C)C(=O)N2 | Chrna7 (Rattus norvegicus, UniProt Q05941) | ACh-evoked current, antagonist, two-electrode voltage clamp | Xenopus laevis oocytes | together with: ACh 300 µM | 0.0345 µM
CC[C@H](C)[C@H](NC(=O)[C@H](Cc1ccc(O)cc1)NC(=O)[C@H](CO)NC(=O)[C@H](CCC(=O)O)NC(=O)[C@H](CC(N)=O)NC(=O)[C@H](CC(C)C)NC(=O)[C@H](C)NC(=O)[C@H](CCCCN)NC(=O)[C@@H](NC(=O)[C@@H](NC(=O)[C@H](CCC(N)=O)NC(=O)[C@H](CCC(N)=O)NC(=O)[C@H](CC(C)C)NC(=O)[C@H](CO)NC(=O)[C@H](CC(C)C)NC(=O)[C@H](CCSC)NC(=O)[C@H](CCC(=O)O)NC(=O)[C@H](Cc1ccc(O)cc1)NC(=O)[C@@H](NC(=O)[C@H](CC(C)C)NC(=O)[C@H](CC(=O)O)NC(=O)[C@H](CC(C)C)NC(=O)[C@H](CC(C)C)NC(=O)[C@@H](NC(=O)[C@@H](NC(=O)[C@H](CC(N)=O)NC(=O)[C@@H](NC(=O)[C@H](CCC(N)=O)NC(=O)[C@@H](NC(=O)[C@H](CC(C)C)NC(=O)[C@@H](N)CO)[C@@H](C)O)[C@@H](C)CC)[C@@H](C)O)[C@@H](C)O)[C@@H](C)O)C(C)C)C(C)C)C(=O)N[C@@H](CC(=O)O)C(=O)N[C@@H](CC(C)C)C(=O)N[C@@H](CCCCN)C(=O)N[C@@H](CCC(=O)O)C(=O)N[C@@H](CC(C)C)C(=O)O | Spike glycoprotein (MERS-CoV, UniProt K9N5Q8) | spike-mediated cell-cell fusion | 293T/MERS/EGFP with Huh-7 | 4 h | ~0.8 µM and 0.8 µM
CC(C)C[C@@H]1NC(=O)[C@H](CCC(=O)O)NC(=O)[C@@H]2CCCN2C(=O)[C@H](Cc2c[nH]cn2)NC(=O)[C@H](CCCC(=O)O)NC(=O)[C@H](CC(C)C)NC(=O)[C@H](Cc2c[nH]cn2)NC(=O)[C@@H]2CSSC[C@H](NC(=O)CN)C(=O)N[C@@H](CSSC[C@@H](C(N)=O)NC1=O)C(=O)N[C@@H](CO)C(=O)N[C@@H](Cc1c[nH]cn1)C(=O)N1CCC[C@H]1C(=O)N[C@@H](C)C(=O)N2 | Chrna3/Chrnb2/Chrna6 with beta3 subunit | ion current, antagonist, two-electrode voltage clamp | Xenopus laevis oocytes | together with: 100 µM acetylcholine | 0.155 µM
CC(C)C[C@H](NC(=O)[C@@H](NC(=O)COc1cccnc1)C(C)C)C(=O)N[C@@H](C[C@@H]1CCNC1=O)C(=O)c1nc2ccccc2s1 | rep R3428I 3C-like proteinase | enzyme activity, inhibitor, HPLC | – | 60 min, 37 °C, together with: substrate 111 µM | 2.9 µM
O=C(/C=C/c1ccccc1)N[C@@H](c1ccccc1)[C@@H](O)C(=O)NC1CCCCC1 | Replicase polyprotein 1a R3428I 3C-like proteinase | enzyme activity, inhibitor | – | pH 4.0 | > 500 µM
CC(C)C[C@H](NC(=O)[C@@H](NC(=O)COc1ccc(C(=O)O)cc1)C(C)C)C(=O)N[C@@H](C[C@@H]1CCNC1=O)C(=O)c1nc2ccccc2s1 | rep R3428I 3C-like proteinase | enzyme activity, inhibitor, HPLC | – | 60 min, 37 °C, together with: substrate 111 µM | 1.7 µM
CNC(=O)ON=CC(C)(C)SC | Acetylcholinesterase (Cavia porcellus, UniProt D3YE96) | Ellman | – | – | 67 µM
CC(C)C[C@@H]1NC(=O)[C@H](CCC(=O)O)NC(=O)[C@@H]2CCCN2C(=O)[C@H](Cc2c[nH]cn2)NC(=O)[C@H](CC(N)=O)NC(=O)[C@H](C(C)C)NC(=O)[C@H](Cc2ccc(O)cc2)NC(=O)[C@@H]2CSSC[C@H](NC(=O)CN)C(=O)N[C@@H](CSSC[C@@H](C(N)=O)NC1=O)C(=O)N[C@@H](CO)C(=O)N[C@@H](Cc1c[nH]cn1)C(=O)N1CCC[C@H]1C(=O)N[C@@H](C)C(=O)N2 | Chrna3/Chrnb2/Chrna6 with beta3 subunit | ion current, antagonist, two-electrode voltage clamp | Xenopus laevis oocytes | together with: 100 µM acetylcholine | 0.013 µM
c1ccc2c(c1)OCC(C1=NCCN1)O2 (centres unmarked) | Replicase polyprotein 1ab, main protease (rep, Severe acute respiratory syndrome coronavirus 2, UniProt P0DTD1) | luciferase reporter, inhibitor | SARS-CoV-2 | 48 h | 17.4 µM

SMILES | target | assay | system | conditions | IC50
CC(C)C[C@H](NC(=O)[C@@H](NC(=O)COc1ccc(O)cc1)C(C)C)C(=O)N[C@@H](C[C@@H]1CCNC1=O)C(=O)c1nc2ccccc2s1 | rep R3428I 3C-like proteinase | enzyme activity, inhibitor, HPLC | – | 60 min, 37 °C, together with: substrate 111 µM | 1.2 µM
COc1cccc(/C=C/C(=O)N[C@@H](COC(=O)c2ccccc2)C(=O)NC2CCCCC2)c1 | rep R3428I 3C-like proteinase | enzyme activity, inhibitor, HPLC substrate depletion | – | pH 4.0 | 98 µM
COc1ccc(C(=O)c2cnc3c(=O)[nH]c(N)nc3n2)cc1 | Ricin A chain | recovery of translation, inhibitor, in vitro luciferase translation | rabbit reticulocyte lysate | – | no inhibition
O=C(/C=C/c1ccc(OC(=O)c2ccccc2)cc1)N[C@H](COC(=O)c1ccccc1)C(=O)NC1CCCCC1 | rep R3428I 3C-like proteinase | enzyme activity, inhibitor, HPLC substrate depletion | – | pH 4.0 | 68 µM
CCC(=O)c1cnc2c(=O)[nH]c(N)nc2n1 | Ricin A chain | recovery of translation, inhibitor, in vitro luciferase translation | rabbit reticulocyte lysate | – | 700 µM
O=C(/C=C/c1ccccc1)N[C@@H](c1ccccc1)[C@@H](OC(=O)/C=C/c1cccc(O)c1)C(=O)NC1CCCCC1 | Replicase polyprotein 1a R3428I 3C-like proteinase | enzyme activity, inhibitor | – | pH 4.0 | > 500 µM
O=C(/C=C/c1ccccc1)N[C@@H](COC(=O)[C@@H]1CCC(=O)N1)C(=O)NC1CCCCC1 | rep R3428I 3C-like proteinase | enzyme activity, inhibitor, HPLC substrate depletion | – | pH 4.0 | > 1600 µM
O=C(O)c1ccc(Cc2cccs2)cc1 | Ricin A chain | ribosome depurination, inhibitor | yeast ribosomes | pH 7.4 | 32 µM
CC(=O)OC[C@@H](NC(=O)/C=C/c1ccccc1)C(=O)NC1CCCCC1 | rep R3428I 3C-like proteinase | enzyme activity, inhibitor, HPLC substrate depletion | – | pH 4.0 | 550 µM
CC(C)C[C@H](NC(=O)[C@@H](NC(=O)COc1ccccc1)C(C)C)C(=O)N[C@@H](C[C@@H]1CCNC1=O)C(=O)c1nccs1 | rep R3428I 3C-like proteinase | enzyme activity, inhibitor, HPLC | – | 60 min, 37 °C, together with: substrate 111 µM | 6.8 µM
CCOP(=O)(OCC)Oc1ccc([N+](=O)[O-])cc1 | Ace (Anopheles gambiae, UniProt Q869C3) | enzyme activity, inhibitor, Ellman | – | 10 min, room temperature, together with: acetylthiocholine | 0.0836 µM
CSCC[C@H](N)C(=O)NCC(=O)N[C@@H](Cc1ccccc1)C(=O)NCC(=O)N[C@@H](CC(C)C)C(=O)N[C@@H](Cc1ccccc1)C(=O)N[C@@H](CC(=O)O)C(=O)O | Shiga-like toxin 2 subunit A A1 fragment | ribosome depurination | yeast ribosomes | pH 7.4 | 60 ± 6 µM
CC(=O)N[C@@H](Cc1c[nH]cn1)C(=O)OC[C@H](NC(=O)/C=C/c1ccccc1)C(=O)NC1CCCCC1 | rep R3428I 3C-like proteinase | enzyme activity, inhibitor, HPLC substrate depletion | – | pH 4.0 | > 3200 µM
CSCC[C@H](NC(=O)[C@H](CC(=O)O)NC(=O)[C@H](CC(=O)O)NC(=O)[C@H](CC(=O)O)NC(=O)[C@@H](N)CO)C(=O)NCC(=O)N[C@@H](Cc1ccccc1)C(=O)NCC(=O)N[C@@H](CC(C)C)C(=O)N[C@@H](Cc1ccccc1)C(=O)N[C@@H](CC(=O)O)C(=O)O | Shiga-like toxin 2 subunit A A1 fragment | ribosome depurination | yeast ribosomes | pH 7.4 | 30 ± 4 µM
CCc1ccc(CN2CCC(n3nccc3NC(=O)c3ccc4c(c3)OCO4)CC2)cc1 | Botulinum neurotoxin type A light chain | inhibitor, FRET, SNAPtide substrate | – | no reducing agent | 26 ± 11 µM
Cc1cccc([N+](=O)[O-])c1C(=O)OC[C@@H](NC(=O)/C=C/c1ccccc1)C(=O)NC1CCCCC1 | rep R3428I 3C-like proteinase | enzyme activity, inhibitor, HPLC substrate depletion | – | pH 4.0 | 100 µM

Repeated from above:
SMILES | target | assay | system | conditions | IC50
CC(C)C[C@H](NC(=O)[C@@H](NC(=O)COc1cccnc1)C(C)C)C(=O)N[C@@H](C[C@@H]1CCNC1=O)C(=O)c1nc2ccccc2s1 | rep R3428I 3C-like proteinase | enzyme activity, inhibitor, HPLC | – | 60 min, 37 °C, together with: substrate 111 µM | 2.9 µM
O=C(/C=C/c1ccccc1)N[C@@H](c1ccccc1)[C@@H](OC(=O)/C=C/c1cccc(O)c1)C(=O)NC1CCCCC1 | Replicase polyprotein 1a R3428I 3C-like proteinase | enzyme activity, inhibitor | – | pH 4.0 | > 500 µM
COc1ccc(C(=O)c2cnc3c(=O)[nH]c(N)nc3n2)cc1 | Ricin A chain | recovery of translation, inhibitor, in vitro luciferase translation | rabbit reticulocyte lysate | – | no inhibition
